# Experimental data collected from several papers.
# Every numbered part comes from another study and shows a few of its results, in no order.

# Study 1 — method: competition protein-binding microarray; molecule type: double-stranded DNA, one strand shown; sample: in vitro; tested at: 2 µM; added: Cbf1 competitor, 0.05 µM; direction: higher = stronger binding
# Target: Phosphate system positive regulatory protein PHO4, full length, GST-tagged (PHO4, Saccharomyces cerevisiae, UniProt P07270, residues 1-312)
# Notes: whole 60-bp probe, lowest competitor level
# Target sequence (chain): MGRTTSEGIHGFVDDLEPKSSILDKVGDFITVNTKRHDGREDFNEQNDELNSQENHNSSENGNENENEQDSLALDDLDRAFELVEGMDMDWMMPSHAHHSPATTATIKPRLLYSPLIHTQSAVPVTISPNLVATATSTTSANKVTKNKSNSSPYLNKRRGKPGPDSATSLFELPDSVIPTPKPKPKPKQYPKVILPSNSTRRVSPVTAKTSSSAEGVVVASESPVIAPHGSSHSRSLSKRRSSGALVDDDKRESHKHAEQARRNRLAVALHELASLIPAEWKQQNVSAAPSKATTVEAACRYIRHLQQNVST
Strand,fluorescence intensity [a.u.]
ATTATACAACAAACACACGTTAAGAGACGCAAACGGGTCTTGATTCGCTTGACGCTGCTG,7380
CGGGGTTAAGTTTGTCCAGTGGGTGGCTTGCAGCAGGTCTTGATTCGCTTGACGCTGCTG,4620
GTCTTGTCTCATTGGTAAGTGGGTGTCCCCACTTCAGTCTTGATTCGCTTGACGCTGCTG,5050

# Study 2 — method: protein-binding microarray; molecule type: double-stranded DNA, one strand shown; sample: in vitro; tested at: not given; direction: higher = stronger binding
# Target: Protein max, full length (MAX, Homo sapiens, UniProt P61244-2, residues 1-151)
# Notes: k-mer, scored over probes, only values ≥0.25
Strand,E-score
AACATGCG,0.426
ACGTGTTA,0.448
CGCGCACG,0.418
CCCCGCAC,0.289

# Other studies, line by line
# IRF5 K96S/S451D/S453D/S456D/S462D full length, phosphomimetic: Interferon regulatory factor 5, full length, phosphomimetic (IRF5, Homo sapiens, UniProt Q13568-2, residues 1-514, K96S/S451D/S453D/S456D/S462D)
Molecule,target,test,system,conditions,scale,measurement,result
GCCTAGCACTGAGATATCAGACTGGATTAGTGCTAGGTCTTGATTCGCTTGACGCTGCTG,"IRF5 K96S/S451D/S453D/S456D/S462D full length, phosphomimetic",protein-binding microarray,"double-stranded DNA, one strand shown, in vitro","250 nM, 60-bp whole probe, added: salmon DNA 0.4 mg/ml","relative to: random background probes, higher = stronger binding",log fluorescence,-0.144 z-score
"PhoQ, residues 284 288 289 292 302 303 SCEHLI","PhoP, residues 12 14 15 18 19 LHSVQ (Escherichia coli, UniProt P23836)","Sort-seq, refers to: YFP reporter",E. coli,"PhoQ-PhoP variant library, added: 10 µM Mg2+","relative to: high Mg2+ state, higher = stronger signaling",fold induction,1.53
GCCTAGCACATGTTTTTCATTGTTTTTCAGTGCTAGGTCTTGATTCGCTTGACGCTGCTG,"IRF5 K96S/S451D/S453D/S456D/S462D full length, phosphomimetic",protein-binding microarray,"double-stranded DNA, one strand shown, in vitro","250 nM, 60-bp whole probe, added: salmon DNA 0.4 mg/ml","relative to: random background probes, higher = stronger binding",log fluorescence,2.21 z-score
